# Results of several laboratories.
# Several values in a cell are separate wells, animals, samples, runs or records. Numbers after ± are the reported error.
# UniProt P04062, sequence (whole entry, unmodified, looked up): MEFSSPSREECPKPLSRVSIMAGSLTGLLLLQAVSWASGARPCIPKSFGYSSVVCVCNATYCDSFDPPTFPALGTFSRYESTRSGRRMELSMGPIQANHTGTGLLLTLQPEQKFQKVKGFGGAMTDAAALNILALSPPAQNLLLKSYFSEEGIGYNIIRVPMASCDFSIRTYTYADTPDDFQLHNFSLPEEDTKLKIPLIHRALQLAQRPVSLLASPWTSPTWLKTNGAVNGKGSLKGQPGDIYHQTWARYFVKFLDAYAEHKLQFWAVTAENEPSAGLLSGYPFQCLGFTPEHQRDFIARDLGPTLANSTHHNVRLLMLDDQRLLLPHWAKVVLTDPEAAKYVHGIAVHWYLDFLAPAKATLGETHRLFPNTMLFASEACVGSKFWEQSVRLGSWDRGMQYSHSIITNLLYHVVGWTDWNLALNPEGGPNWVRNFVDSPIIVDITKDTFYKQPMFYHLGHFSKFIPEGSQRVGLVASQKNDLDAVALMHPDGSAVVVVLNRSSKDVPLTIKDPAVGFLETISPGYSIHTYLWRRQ
Compound,target or system,assay,test system,conditions,how to read,endpoint,value
COC(=O)Nc1nc2cc(C(O)c3ccc(F)cc3)ccc2[nH]1 (stereo not drawn),Salmonella typhimurium,Ames preincubation test,TA1535,"218.8 µg/plate, without S9",,revertants,13.3 revertants/plate
CC(C)OCCOCc1ccc(OCC(O)CN(N=O)C(C)C)cc1 (stereo not drawn),Salmonella typhimurium,Ames test,TA100,"15.8 µg/plate, without metabolic activation",relative to: solvent control,revertant fold increase,0.9 fold
CN1CCCN(c2cnc3c(cc(C(=O)NCc4ccc(Cl)cc4)c(=O)n3CC(=O)N3CC(C)(F)C3)n2)C1=O,human cytomegalovirus,,"MRC-5, AD169-GFP",,relative to: CC50 over EC50,selectivity ratio,> 21.2
COc1ccc2c(c1)C(C)(C)C(/C=C/C1=C(Oc3ccc(C(=O)NCCCCOc4cc(CN(Cc5ccccn5)Cc5ccccn5)cc(CN(Cc5ccccn5)Cc5ccccn5)c4)cc3)C(=C/C=C3/N(CCCCS(=O)(=O)[O-])c4ccc(OC)cc4C3(C)C)CCC1)=[N+]2CCCCS(=O)(=O)[O-].O=[N+]([O-])[O-].O=[N+]([O-])[O-].[99Tc+].[C-]#[O+].[C-]#[O+].[C-]#[O+].[Zn+2],Staphylococcus aureus,,"BALB/c mice, bacterial myositis, adipose",12 h,,tissue uptake,0.45 %ID/g
Nc1nc2cc(C(=O)c3ccc(F)cc3)ccc2[nH]1,Salmonella typhimurium,Ames preincubation test,TA1537,"4.9 µg per plate, 3 days, without S9",,revertants,14.7 revertants per plate
CCN(CC)CC#CCNc1ccnc2cc(Cl)ccc12,Salmonella typhimurium,mini-Ames test,TA97a,"62.5 µg/well, with rat liver S9",,revertants,18 revertants/well and 16 revertants/well
O=C1NC2(CC2)COc2ncc(F)cc2[C@H]2COCCN2c2ccn3ncc1c3n2,Salmonella typhimurium,Ames test,TA100,"500 µg/plate, 48 h, with: without S9",,revertant colonies,71 ± 9 revertants/plate
CC(=O)Nc1nc(-c2cccc3ccccc23)cs1,Trypanosoma cruzi,"reporter mRNA translation, inhibitor, refers to: capped polyadenylated Renilla luciferase mRNA",cell-free extract,concentration not given,relative to: control RNA,relative translation,104%
CCCCOCCCCCN1C[C@H](O)[C@@H](O)[C@H](O)[C@H]1CO,"Lysosomal acid glucosylceramidase (GBA1, Homo sapiens, UniProt P04062, R534H)","inhibitor, 4MU-β-D-glucopyranoside",,with: 4MU-β-D-glucopyranoside,,IC50,30 µM
O=C1C2CC3CC1CC(C(=O)N1CCN(c4ccc([N+](=O)[O-])c5ncccc45)CC1)(C3)C2,Escherichia coli,Ames test,WP2 uvrA pKM101,"0.05 µg/well, with S9",relative to: vehicle,revertant fold increase,1
O=C(CCCn1cnc([N+](=O)[O-])n1)Nc1ccc(F)c(Cl)c1,Trypanosoma cruzi,"reporter mRNA translation, inhibitor, refers to: capped polyadenylated Renilla luciferase mRNA",cell-free extract,concentration not given,relative to: control RNA,relative translation,101%
O=C(Oc1cc(OC(=O)c2cc(O)c(O)c(O)c2)c2ccccc2c1)c1cc(O)c(O)c(O)c1,Herpes simplex virus 2,,"HeLa, 333",,relative to: CC50 over IC50,therapeutic index,20.8

# Repeated from above:
Compound,target or system,assay,test system,conditions,how to read,endpoint,value
CC(C)OCCOCc1ccc(OCC(O)CN(N=O)C(C)C)cc1 (stereo not drawn),Salmonella typhimurium,Ames test,TA100,"15.8 µg/plate, without metabolic activation",relative to: solvent control,revertant fold increase,0.9 fold
